Assay results of several laboratories.
Each numbered part is a random draw from the data of one study; scales do not carry over between parts.

Block 1
Target: Ras GTPase-activating protein-binding protein 1, full length (G3BP1, Homo sapiens, UniProt Q13283)
Chain of UniProt Q13283 (whole entry, looked up): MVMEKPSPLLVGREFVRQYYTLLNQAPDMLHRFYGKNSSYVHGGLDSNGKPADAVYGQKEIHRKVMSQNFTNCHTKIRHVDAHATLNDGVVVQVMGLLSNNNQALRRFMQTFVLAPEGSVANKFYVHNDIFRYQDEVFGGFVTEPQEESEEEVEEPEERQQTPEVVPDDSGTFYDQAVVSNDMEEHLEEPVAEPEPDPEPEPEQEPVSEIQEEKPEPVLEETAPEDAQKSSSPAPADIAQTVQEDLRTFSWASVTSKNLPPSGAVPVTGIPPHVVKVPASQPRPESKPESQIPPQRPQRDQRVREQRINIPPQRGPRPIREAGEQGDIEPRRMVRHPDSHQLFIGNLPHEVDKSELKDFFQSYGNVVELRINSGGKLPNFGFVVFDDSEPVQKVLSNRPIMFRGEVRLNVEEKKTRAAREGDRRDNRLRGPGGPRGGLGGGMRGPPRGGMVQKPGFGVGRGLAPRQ
Technique: RNA Bind-n-Seq
Form: RNA
Matrix: in vitro
Concentration: 200 nM
Setting: whole 134-nt RNA, ends assumed
With: 150 mM LiCl
Relative to: input library
Reading: higher = stronger binding
Each molecule: 7-deaza-guanosine replaces G
All sequences stand within: GGGAGUUCUACAGUCCGACGAUC … UGGAAUUCUCGGGUGUCAAGG
Oligonucleotide	log2 enrichment
UGGGAGGUGGAUUUUGUUUAUUUUUUUAGCUCAUUUCCAGGGGUGGGAAUUUUUUUUUAAUAUGUGACAUGAAUAAAGUUGUUUUUGAAA	-0.573
CCUCAAGUCCUGUGCUACACAUCGUAUGUACCGAAUCGGAGGUUUGGAAAGGAAAGUAUUAUGUUACGCCGUUCGGAUCUGCACUUCCAG	-0.415
GGCUGCUGGAGUGCCGUGAGCAGGCCGCGGGAACGUCGCCGUCACCUUGUCUCGGGGCCUCGGCGCUGCUUCCCGCCAAAACACGUUUAC	-0.189
CACAGACAACACGCACCCACACAGACACAGAGGGAAGGGGUUGGGAUGGGGACAGGGUGCACAGCAGUGCGGGGUAGGACCCCAGCCCCU	0.463
UCCUGUGCUACACAUCGUAUGUACCGAAUCGGCCCCCCGGCCCCCCGGGGCCCCCCGGGAAAGUAUUAUGUUACGCCGUUCGGAUCUGCA	-0.199
GCAGGAAGUAAAAACAAAUGGAAAUGCUUCGGAUAAUGGCAGGGGUGGGGGUUGCUAAGGAAAGGGUGGGAUGGGAGUGGGUAAAGAGUU	-0.0908
GCAGGAAGUAAAAACAAAUGGAAAUGCUUCGGAUAGUGGCAGGAAAGGGGGUUGCUAAGGAAAGGGUGGGAUGGGAGUGGGUAAAGAGUU	0.46
CAAGUCCUGUGCUACACAUCGUAUGUACCGAAUCGGGAAAAAAAGGGAGGGAGGGAAAGUAUUAUGUUACGCCGUUCGGAUCUGCACUUC	-0.243

Block 2
Target: Interferon regulatory factor 7, full length, phosphomimetic (IRF7, Homo sapiens, UniProt Q92985, residues 1-503, S101K/S471D/S472D/S475D/S476D/S477D/S483D/S484D/S487D)
Chain of UniProt Q92985 (whole entry, unmodified, looked up): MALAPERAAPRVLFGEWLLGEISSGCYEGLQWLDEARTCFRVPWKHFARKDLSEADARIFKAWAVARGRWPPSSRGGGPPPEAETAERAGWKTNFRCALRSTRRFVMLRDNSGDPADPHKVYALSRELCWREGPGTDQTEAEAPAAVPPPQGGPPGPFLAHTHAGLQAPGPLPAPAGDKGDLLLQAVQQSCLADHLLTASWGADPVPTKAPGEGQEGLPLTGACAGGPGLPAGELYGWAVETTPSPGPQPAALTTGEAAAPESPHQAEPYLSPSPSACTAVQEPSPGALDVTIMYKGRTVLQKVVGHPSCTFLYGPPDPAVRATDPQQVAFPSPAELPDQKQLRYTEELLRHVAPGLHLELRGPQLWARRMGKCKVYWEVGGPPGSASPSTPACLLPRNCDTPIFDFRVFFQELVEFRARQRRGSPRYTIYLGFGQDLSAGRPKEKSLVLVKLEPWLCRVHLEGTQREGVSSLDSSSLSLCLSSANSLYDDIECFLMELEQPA
Technique: protein-binding microarray
Form: double-stranded DNA, one strand shown
Matrix: in vitro
Concentration: 250 nM
Setting: 60-bp whole probe
With: salmon DNA 0.4 mg/ml
Relative to: random background probes
Reading: higher = stronger binding
All sequences stand within: GCCTAGCAC … GTCTTGATTCGCTTGACGCTGCTG
Oligonucleotide	log fluorescence
GACGGACTGCTATTCCTGACGTGCTAG	-0.218 z-score
TTAGGTATCGGTATCGGTTCGTGCTAG	4.57 z-score
TACGGACTGGGGTTTCGGGACGTGCTA	1.25 z-score
TTAGCTTTCAGTTTCGATTAGTGCTAG	8.63 z-score
GACGGACTGGGTTTCCGGACGTGCTAG	0.371 z-score
CCTAGTTTCATTCCTGATCTGTGCTAG	3.34 z-score
TCATTTCTGTGTCACAGACTGTGCTAG	1.67 z-score
TTAGGTTTCCTTTTCCTATAGTGCTAG	7.55 z-score
TCACATTGCTTTCTCTTACTGTGCTAG	1.05 z-score
TCAGTAATCGAAATCTTACTGTGCTAG	0.304 z-score
TTAGGACTGGCACTGGGTTAGTGCTAG	-0.472 z-score
TCAACTGTCTGTTTCCTACTGTGCTAG	0.377 z-score
TTAGGTTTCCTACTGATTTAGTGCTAG	0.98 z-score
TTACATTTCGGGTTTCGATTAGTGCTA	7.58 z-score

Block 3
Target: RING finger protein unkempt homolog, zinc fingers 1-6, GST-SBP tag (UNK, Homo sapiens, UniProt Q9C0B0, residues 30-357)
Technique: RNA Bind-n-Seq
Form: RNA
Matrix: in vitro
Concentration: not given
Setting: RNA with constant flanks, human and mouse sites, ends assumed
Relative to: input RNA pool
Reading: higher = stronger binding
All sequences stand within: GGGAGUUCUACAGUCCGACGAUC … CAACAGAGGAUUGAGCAUCA
Target sequence (chain): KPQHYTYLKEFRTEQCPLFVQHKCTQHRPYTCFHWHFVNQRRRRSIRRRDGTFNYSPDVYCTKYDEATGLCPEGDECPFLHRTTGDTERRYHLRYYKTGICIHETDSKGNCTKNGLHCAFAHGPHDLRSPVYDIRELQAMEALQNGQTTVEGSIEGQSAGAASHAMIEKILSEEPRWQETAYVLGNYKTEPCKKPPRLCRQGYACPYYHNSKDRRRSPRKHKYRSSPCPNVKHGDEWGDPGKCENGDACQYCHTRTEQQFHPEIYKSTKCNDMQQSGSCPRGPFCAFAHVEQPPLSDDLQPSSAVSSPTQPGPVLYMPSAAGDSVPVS
Oligonucleotide	bound/input enrichment [ratio]
UCACCCACUCUUUGAGUACUUUGACUACGAGUCCAGAAAGAGCAUGAGUUGUUAUGUGCUUAGUAAUGUUCUGGAUUAUAACACAGAAAUUGUCUCUCAAGACCAGGUGGAUUCCAUAAU	0.14
CGUGACCUCAAACCCAAUGGGGCCAACAUCUUGGUAACAGAGGAGAAUAAGAAGGAGUAUGUACACCUGGUAUGCCAGAUGAGAAUGACAGGAGCCAUCCGCAAGCAGUUGGCGGCUUUC	0.121
UUUGCCACAGGUGGUUCGGAUGGAUUCGUCAAUAUUUGGGACCCAUUUAACAAGAAGCGCCUGUGCCAGUUCCAUCGGUACCCCACCAGCAUCGCUUCCCUUGCCUUCAGUAAUGACGGA	0.15
UCGUGGGCCCCUGAGGACGCCUGGAUGGGCACUCACCCUAAGUAUCUAGAAAUGAUGGAAUUAGAUAUAGGAGAUGCCACCCAAGUUUAUGUAGCGUUCUUGGUUUACCUGGACCUCAUG	2.67
AACAGCUCUCUCCUUCCUCGUUACUGCAAAUUGAUUGUUUCCCUUUCCUGGUACCAUAAUCUUAGAGGCAAACUUUGAGACAGGUGUUUUGAGGCUCUUCCUGUACUCUUAGGAUAUAUG	1.38
UCCGUGCUUGUGGUGAAGGCGAGGCAGCCAAAGCCUUUCUUUGCUGCCGGAAAUACAUUUGAGAUGACUUGCAAAGUAUCUUCCAAGAAUAUUAAGUCGCCACGCUACUCUGUUCUCAUC	0.0979
CAUGUCAUGCAUUUUUCUAAAUGGGCAGUUUCCAGUGGCAGCAGUACAGCAUUACUUUAUAGCAAACGACUGAUUACAUACCGGUUACGGCACCUCCUUCGUGCAAGGUGUGAUGCAUCC	0.258
CUUCAGUUACAUCCCAGGGAAGAUGCUUGCAUCCCCAAUACAAACUAUGGUGUUCUCUUAAUAGAAUUUUUUGAAUUAUAUGGACGACACUUCAAUUAUUUAAAGACUGGCAUCCGGAUA	1.34
UUUCUCUCUUCCCCUCUCCCUCUCCCUCUGCCGGGUGGAUGCUUUCUCCAUGUGGCAAGGCUGUAACUGUUCACAGCUGUCUGAAACAGCAGUGGACCAGGAGCAGCUUGGAGUUUUAAC	0.759
CUCGGCAGCACUGCGCAGCUCUCGAAUCUCUCGUGCUUCAACCUUUCUUUUCUUAUUGUUAAUAGGAAAAAAUCAACAUCUGUAAAUUAAGAAUACAGCAAUUAUCUGUACAGUACUGCA	0.122
CUCUCCAACUGCAACCACACCUACUGUCUCAAGUGUAUUCGCAAGUGGAGAAGUGCUAAACAAUUUGAGAGCAAGAUCAUAAAGUCCUGCCCCGAAUGCCGGAUCACAUCUAACUUUGUC	0.0851

Block 4
Target: Histone acetyltransferase KAT6A, both winged helices, GST fusion (KAT6A, Homo sapiens, UniProt Q92794, residues 1-181)
Technique: protein binding microarray
Form: double-stranded DNA, one strand shown
Matrix: in vitro
Concentration: not given
Setting: 8-mer, flanks averaged, mean of 2 arrays, mostly near background
Relative to: not given
Reading: higher = stronger binding
Residues (chain): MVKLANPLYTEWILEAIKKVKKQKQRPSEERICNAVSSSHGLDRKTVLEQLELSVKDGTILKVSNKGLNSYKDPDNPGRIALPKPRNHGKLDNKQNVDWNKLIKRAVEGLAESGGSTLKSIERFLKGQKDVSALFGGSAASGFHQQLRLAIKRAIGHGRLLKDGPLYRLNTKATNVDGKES
Oligonucleotide	E-score
CTTCTGGA	-0.0606
CTTCTCTA	-0.226
AGTTAATC	-0.103
TGTTATAA	-0.00885
AAAAATAA	-0.156
ACTTAATA	-0.0868
GAGGCTAC	-0.172
AATCGTTG	-0.113
GCATACCA	-0.104
TCTTTTAA	-0.0593
AGATCCCT	-0.195
AATCGGTA	0.0891
AACTTACT	-0.236
CCTGCACC	-0.155
AGATTCAG	-0.0501
ATGAATAA	-0.126
AAGTTTTA	-0.0697
CAACGTAA	-0.203
ACGCGCGA	0.372
GGTGAACC	0.121
GCGAGGCC	-0.00023
CCACCTCA	-0.268
CACGCCCG	0.283
CACTGCGG	0.0981

Block 5
Target: RNA binding protein fox-1 homolog 2, RRM domain, GST-SBP tag (RBFOX2, Homo sapiens, UniProt O43251-10, residues 100-194)
Technique: RNA Bind-n-Seq
Form: RNA
Matrix: in vitro
Concentration: 365 nM
Setting: natural RNA segment, single round, ends assumed
Relative to: no-protein control
Reading: higher = stronger binding
All sequences stand within: GGGAGUUCUACAGUCCGACGAUC … UGGAAUUCUCGGGUGCCAA
Target sequence (chain): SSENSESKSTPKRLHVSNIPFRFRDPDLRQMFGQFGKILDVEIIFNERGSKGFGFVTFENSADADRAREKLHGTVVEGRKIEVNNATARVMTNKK
Oligonucleotide	RBNS enrichment (R)
UAGCGUGGUAGGACUAGAUUUUUGUUUUCCCCACCAAGUAAAUGUUCACCUGUGACCUUGGGCUGGGAUUCUCUUUAGGAAAAAAGGCUACUACUAUGUUAUGAGAGUCA	0.465
CUGUUUUUAAGACACUUUGAUGUUUUUAUGGGGUGGUUGGUAACCUCUCAGCCUAGCCUCUCCUCACUCAUUUUCAACGCUGACCCUGACAGGAUCCACAGACUUCUCCA	0.467
AGAAAUAUAUUUUGAUCUAUUUUCCUAUGGAGUUGUUUCUAUUAUGACCAUUUAAUUUUGUUUUUAUUUAAUAGUAGUAUUUCCUUCCCUUUUAUCUAAUUUUUUAUAUG	1.21
CAACAUUUAUCUGUAGCUAAGAUAUUUUCUCUUAAUAAUUACCUCCCAAAUGCUUUUAGUGAACCGACUGUAUUUUUCCGAGGUAUCUCGUGUACAUGGUACUUCUUUCU	0.549
UGCAGAUGAGAUCUGUACUAUAGUCUACAAUUUGUAUCCUGUCUCUCCCACCACCCCCGGCAGUGUCCAGACAGGAGAGCAGAUGCCACUCUCCCCUUUUACCAUGACCU	0.324
AUCUUUGUUGUUUUUGUAUUUAUUUGUAUGUUCAGAUCCAAAGGAUCCGUUGUAAAAAUAUAUAUGUGAAUAUAUAUACAUAACCAGUGCAAUCAGCUUUCAUUUCCUUU	0.605
UAAAGCAUGACAUAAAAGCCCAAUUCAGAUCCUACUAAUAAAACAAGCUCCAAUGUAUUAUGGAAACAUGUGCUUUUACGCCUCCAAUAAAACUAUGUUAUCGAUGGGCU	5.33
GCAUUGAUGAUUCCUUCAACUUCCUGGUGAAACUGCUGACUUAAUUUGCUUUUGUUUGCUUUAGCUUGGUAACAGCGGUGAAUAGAGUGUAGUGUAAGUGGAGAACCAGG	0.302
ACUAAUGCGCCGGGAAGGCUGGGUGCGUACAAGCAAAGGGCUCCCCAUCAGUCCCGUCCGUCUGUCGCCUUCCCGCAAGCGUCAUCAUCGAAGCCACUGCUCCUGGGAGC	0.315
CUGUCACAGGAGGGAGUUGGGCUAGAUCAUCUUUAAGGUAGGUUCUAGCUUUGACAUCAUCUUGGGGGUUAGGCCAGAGGCUGGGAAGACUGGGUGGACUUUCUCAAUUG	0.48
CCAGUAAUGGAAGUGUUAAUUUUACUGUACUUUUUGGUACCUUUUGGGAAUCUAAUGUAUUGUAAGGUAUUUUACACGUGUCCUGAUUUUGCCACGACCUGGAUAUUGAA	0.379
AACAGCCCAGGGGCCUUUAUUUUGGGAAAGGCUGUCCCGGGCUGUUACUGUCUCUUCUGGUUAUAAAGCAGACAUGUGGCCAUCUUUUCCGCAGGGUUAGAGUGGGCUCC	0.417

Excerpt of the above (block 1):
Oligonucleotide	log2 enrichment
UCCUGUGCUACACAUCGUAUGUACCGAAUCGGCCCCCCGGCCCCCCGGGGCCCCCCGGGAAAGUAUUAUGUUACGCCGUUCGGAUCUGCA	-0.199
CACAGACAACACGCACCCACACAGACACAGAGGGAAGGGGUUGGGAUGGGGACAGGGUGCACAGCAGUGCGGGGUAGGACCCCAGCCCCU	0.463
GCAGGAAGUAAAAACAAAUGGAAAUGCUUCGGAUAGUGGCAGGAAAGGGGGUUGCUAAGGAAAGGGUGGGAUGGGAGUGGGUAAAGAGUU	0.46
CCUCAAGUCCUGUGCUACACAUCGUAUGUACCGAAUCGGAGGUUUGGAAAGGAAAGUAUUAUGUUACGCCGUUCGGAUCUGCACUUCCAG	-0.415
GGCUGCUGGAGUGCCGUGAGCAGGCCGCGGGAACGUCGCCGUCACCUUGUCUCGGGGCCUCGGCGCUGCUUCCCGCCAAAACACGUUUAC	-0.189
